Measured values gathered from unrelated publications.
Every numbered part comes from another study and shows a few of its results, in no order. Values joined by “and” are separate records of one study, mostly repeats; a detail may differ. Changes are numbered by the printed parent chain.

Study 1
Target: vanadate, free oxyanion
Technique: microfluidic competitive inhibition
Matrix: in vitro, cell-free expressed
Concentration: not given
Notes: derived from inhibition constants, unchanged parent 676 nM
Reading: lower = stronger binding
Starting sequence: PafA, mature enzyme, eGFP fusion (Elizabethkingia meningoseptica, UniProt Q9KJX5); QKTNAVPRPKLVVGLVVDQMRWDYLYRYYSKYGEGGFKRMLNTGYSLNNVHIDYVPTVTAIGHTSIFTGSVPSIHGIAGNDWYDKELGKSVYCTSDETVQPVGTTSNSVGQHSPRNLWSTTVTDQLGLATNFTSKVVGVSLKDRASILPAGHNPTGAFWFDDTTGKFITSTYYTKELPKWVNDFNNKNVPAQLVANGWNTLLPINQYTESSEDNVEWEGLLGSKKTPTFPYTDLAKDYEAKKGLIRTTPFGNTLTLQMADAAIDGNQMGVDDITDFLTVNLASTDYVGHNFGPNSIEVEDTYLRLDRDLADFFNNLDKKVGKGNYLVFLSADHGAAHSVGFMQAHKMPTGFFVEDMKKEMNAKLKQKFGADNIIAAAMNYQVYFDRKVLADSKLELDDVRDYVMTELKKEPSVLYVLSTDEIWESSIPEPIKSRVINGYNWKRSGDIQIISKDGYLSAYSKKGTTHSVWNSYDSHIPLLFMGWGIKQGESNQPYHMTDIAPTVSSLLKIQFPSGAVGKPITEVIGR
Change	oxyanion analog dissociation constant
K10V	679 nM
W483V	681 nM
K236G	583 nM
L506V	690 nM
T43V	652 nM
T163G	418 nM
A259V	1.09 µM
L389V	701 nM

Study 2
Target: CCNA1, cyclin fold, Cln2 fusion (human)
Technique: yeast growth competition, sequencing
Matrix: yeast
Notes: strong parent motif
Relative to: not given
Reading: higher = stronger binding
Starting sequence: viral docking peptide; YKVKRRLVFGADD
Change	normalised enrichment score
G10H	1.31
R6W	-0.41
V8T	1.14
K4S	0.911
R6C	0.826
A11N	1.28
L7I	0.79
A11K	0.868

Other studies, line by line
SMILES	tested on	assay	conditions	how to read	endpoint	value
CN1CCN(c2cnc3c(C4CCN(C(=O)c5ccc(OC(F)(F)F)cc5N)CC4)ncnc3c2)CC1	CRK2 (Plasmodium falciparum, UniProt P61075)	cell-free assay, competition with immobilised ligand	1 µM		remaining binding	100%
O=C1CCC(N2Cc3c(ccc4c3OCC43CCN(Cc4ccccc4)CC3)C2=O)C(=O)N1 (centres unmarked)	Caco-2		10 µM, 120 min, apical to basolateral		recovery	89.5%
CNCc1ccc(-c2[nH]c3cc(F)cc4c3c2CCNC4=O)cc1	RPE-1 BRCA2-/-		1 µM, unit not given	relative to: untreated	clonogenic survival	0 and 0.00885
CC(=O)[C@H]1CC[C@H]2[C@@H]3CC[C@@H]4C[C@H](O)CC[C@]4(C)[C@H]3CC[C@]12C	mouse MPNST tumor cells	high-content nuclear imaging, refers to: cell number	10 µM, 12 h, mean of 2 replicates	relative to: plate mean, higher = more cells	nuclei count	-0.45 z-score

Some of these lines once more (study 2):
Change	normalised enrichment score
R6C	0.826
A11N	1.28
